Measurements collected from several papers.
Protocols differ between the studies behind these lines. Values joined by “and” are separate records of one study, mostly repeats; a detail may differ. ± gives the spread as reported. Converted amounts (≈) assume the structure as drawn.
UniProt Q09161, sequence (whole entry, looked up): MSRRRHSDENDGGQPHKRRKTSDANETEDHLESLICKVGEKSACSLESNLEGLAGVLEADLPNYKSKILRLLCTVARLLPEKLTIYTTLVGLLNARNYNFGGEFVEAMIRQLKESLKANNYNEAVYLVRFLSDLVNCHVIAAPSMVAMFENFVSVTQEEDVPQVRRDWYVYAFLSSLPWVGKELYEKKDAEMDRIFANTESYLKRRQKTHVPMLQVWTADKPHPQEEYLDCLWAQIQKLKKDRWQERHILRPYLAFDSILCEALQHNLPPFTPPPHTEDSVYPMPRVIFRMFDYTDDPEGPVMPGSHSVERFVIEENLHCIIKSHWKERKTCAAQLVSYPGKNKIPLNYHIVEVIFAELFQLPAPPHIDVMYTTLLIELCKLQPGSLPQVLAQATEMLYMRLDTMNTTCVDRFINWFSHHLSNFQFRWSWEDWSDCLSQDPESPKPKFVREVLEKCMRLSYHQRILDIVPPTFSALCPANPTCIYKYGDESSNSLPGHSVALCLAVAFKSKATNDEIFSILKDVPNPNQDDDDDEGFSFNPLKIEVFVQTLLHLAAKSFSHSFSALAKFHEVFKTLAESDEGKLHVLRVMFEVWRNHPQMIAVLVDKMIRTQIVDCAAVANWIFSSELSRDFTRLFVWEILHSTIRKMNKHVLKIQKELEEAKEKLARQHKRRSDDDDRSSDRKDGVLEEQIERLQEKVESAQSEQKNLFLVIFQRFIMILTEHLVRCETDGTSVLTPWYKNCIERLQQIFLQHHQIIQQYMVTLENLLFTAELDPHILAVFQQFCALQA
UniProt Q13557, sequence (whole entry, looked up): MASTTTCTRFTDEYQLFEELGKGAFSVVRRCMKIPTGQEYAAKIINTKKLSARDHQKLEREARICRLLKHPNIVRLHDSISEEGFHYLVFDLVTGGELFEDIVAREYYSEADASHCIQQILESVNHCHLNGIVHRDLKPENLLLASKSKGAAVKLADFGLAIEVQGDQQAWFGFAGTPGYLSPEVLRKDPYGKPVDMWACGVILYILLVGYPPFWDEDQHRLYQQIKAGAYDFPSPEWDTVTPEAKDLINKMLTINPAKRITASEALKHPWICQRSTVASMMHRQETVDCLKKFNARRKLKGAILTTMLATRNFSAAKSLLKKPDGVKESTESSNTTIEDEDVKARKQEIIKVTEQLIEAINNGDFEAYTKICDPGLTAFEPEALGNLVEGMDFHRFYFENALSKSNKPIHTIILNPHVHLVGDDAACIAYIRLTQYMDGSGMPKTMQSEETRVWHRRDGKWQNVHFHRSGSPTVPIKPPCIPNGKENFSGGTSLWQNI
UniProt Q16873, sequence (whole entry, looked up): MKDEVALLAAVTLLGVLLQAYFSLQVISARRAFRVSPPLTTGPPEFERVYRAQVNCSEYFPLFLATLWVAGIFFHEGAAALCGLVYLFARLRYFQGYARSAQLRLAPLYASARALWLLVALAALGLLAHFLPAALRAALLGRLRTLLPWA
UniProt Q9NQS5, sequence (whole entry, looked up): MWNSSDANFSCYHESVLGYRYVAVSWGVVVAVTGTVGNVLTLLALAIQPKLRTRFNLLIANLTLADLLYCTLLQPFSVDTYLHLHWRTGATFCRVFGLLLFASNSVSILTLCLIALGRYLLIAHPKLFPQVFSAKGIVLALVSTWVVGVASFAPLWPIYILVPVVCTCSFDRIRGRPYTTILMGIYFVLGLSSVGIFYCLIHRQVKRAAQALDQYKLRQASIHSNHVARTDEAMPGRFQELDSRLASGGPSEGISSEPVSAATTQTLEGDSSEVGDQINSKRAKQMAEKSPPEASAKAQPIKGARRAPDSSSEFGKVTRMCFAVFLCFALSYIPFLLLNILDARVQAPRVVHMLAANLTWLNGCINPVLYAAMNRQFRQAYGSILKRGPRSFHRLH

Nc1ncnc2c([C@@H]3N[C@H](CO)[C@@H](O)[C@H]3O)c[nH]c12  inhibition (Measles morbillivirus; viral replication; Vero 76, Chicago; 3 µM): 26.4%
C[C@@H](O)[C@@H](CO)NC(=O)[C@@H](CCCNC(=N)N)NC(=O)[C@@H]1CCCN1C(=O)[C@@H]1CSSC[C@H](NC(=O)[C@H](Cc2ccccc2)NC(=O)CN2CCN(CC(=O)O)CCN(CC(=O)O)CCN(CC(=O)O)CC2)C(=O)N[C@@H](Cc2ccc(O)cc2)C(=O)N[C@@H](Cc2ccccc2)C(=O)N[C@@H](CCC(N)=O)C(=O)N[C@@H](CC(N)=O)C(=O)N1 [gallium-68 labelled]  tissue uptake (healthy Wistar rat, blood; intravenous, 8 MBq, 120 min, individual animals): 0.14 %ID/g
C[C@H]1CN(c2n[nH]c3nc(N[C@H]4CC[C@H](NS(=O)(=O)CCC(F)(F)F)CC4)ncc23)CCO1  remaining binding (Nuclear cap-binding protein subunit 1 (Homo sapiens, UniProt Q09161); Kinobeads competition, measured: NCBP1; 0.8 µM, unit not given; baseline: vehicle): 1.3
C=C(CCC=C(C)C)[C@H]1CC[C@H]2[C@@H]3CC=C4C[C@@H](O)CC[C@]4(C)[C@H]3CC[C@]12C  antileishmanial activity (Leishmania mexicana; propidium iodide flow cytometry; promastigotes; concentration not given, 48 h): inactive
Cc1cc(C)c(-n2ccn3nc(-c4cccnc4)cc23)cc1NC(=O)c1cc(C#N)cc(S(F)(F)(F)(F)F)c1  inhibition (murine hepatitis virus; viral replication, nanoluciferase reporter; DBT; 1 µM, 10 h; baseline: DMSO vehicle): 42%
COC(=O)c1ccc2c(ccc3oc([N+](=O)[O-])cc32)c1  MIC90 (Enterobacter cloacae; REMA): > 32 µg/mL
Cc1cnc(-c2cc(Cl)ccc2F)cc1-n1c(=O)n(CC(N)=O)c2cnccc21  inhibition (murine hepatitis virus; viral replication, nanoluciferase reporter; DBT; 1 µM, 10 h; baseline: DMSO vehicle): 28%
CC(C)C[C@H](NC(=O)OCc1ccccc1)C(=O)N[C@H](C=O)C[C@@H]1CCCNC1=O  EC90 (Norovirus; viral replication; HG23 replicon cells; 96 h): 9.3 ± 0.34 µM
CC(C)[C@H](NC(=O)[C@H](CCCNC(=N)N)NC(=O)[C@H](Cc1c[nH]c2ccccc12)NC(=O)[C@H](CCCNC(=N)N)NC(=O)[C@H](Cc1c[nH]c2ccccc12)NC(=O)[C@H](Cc1c[nH]c2ccccc12)NC(=O)[C@H](Cc1c[nH]c2ccccc12)NC(=O)[C@H](CCCNC(=N)N)NC(=O)[C@H](Cc1c[nH]c2ccccc12)NC(=O)[C@H](CCCNC(=N)N)NC(=O)CN)C(N)=O  MIC (Candida albicans; CGMCC 2.209; no added salts): 8 µM
CC[C@H](C)[C@H](NC(=O)[C@H](Cc1ccccc1)NC(=O)[C@H](CCC(=O)O)NC(=O)[C@H](CCCNC(=N)N)NC(=O)[C@H](C)NC(=O)[C@H](C)NC(=O)[C@H](CCC(N)=O)NC(=O)[C@H](CCC(=O)O)NC(=O)[C@H](CCC(=O)O)NC(=O)[C@H](CC(C)C)NC(=O)[C@H](Cc1ccc(O)cc1)NC(=O)[C@H](CO)NC(=O)[C@H](CO)NC(=O)[C@@H](NC(=O)[C@H](CC(=O)O)NC(=O)[C@H](CO)NC(=O)[C@@H](NC(=O)[C@H](Cc1ccccc1)NC(=O)[C@@H](NC(=O)CNC(=O)[C@H](CCC(=O)O)NC(=O)[C@H](C)NC(=O)CCc1c[nH]cn1)[C@@H](C)O)[C@@H](C)O)C(C)C)C(=O)N[C@@H](C)C(=O)N[C@@H](Cc1c[nH]c2ccccc12)C(=O)N[C@@H](CC(C)C)C(=O)N[C@H](C(=O)N[C@@H](CCCNC(=N)N)C(=O)NCC(=O)N[C@@H](CCCNC(=N)N)C(=O)N[C@@H](CCCCNC(=O)COCCOCCNC(=O)COCCOCCNC(=O)CC[C@H](NC(=O)CCCCCCCCCCCCCCCCC(=O)O)C(=O)O)C(=O)NCC(=O)NCC(=O)N[C@@H](CO)C(=O)N[C@@H](CCCCNc1c(NCCCCCN(O)C(=O)CCC(=O)NCCCCCN(O)C(=O)CCC(=O)NCCCCCN(O)C(C)=O)c(=O)c1=O)C(=O)O)C(C)C [zirconium-89 labelled]  tissue uptake (rat, heart; sc, 3 nmol/kg, 168 h, ex vivo): 0.06 %ID/g
CCOc1cc(N2CCC(O)CC2)ccc1Nc1ncc2c(n1)N(C)c1ccccc1C(=O)N2C  inhibition (murine hepatitis virus; viral replication, nanoluciferase reporter; DBT; 1 µM; baseline: DMSO vehicle): 9%
CC1(C)CC(=O)c2c(C(F)(F)F)nn(-c3ccc(C(N)=O)c(N[C@H]4CC[C@H](O)CC4)c3)c2C1  selectivity index (human alphaherpesvirus 1; primary human fibroblasts, K26 GFP; baseline: CC50 over IC50): > 1200
COc1cc(Nc2ncc(F)c(Nc3ccc4c(n3)NC(=O)C(C)(C)O4)n2)cc(OC)c1OC  IC50 (Leukotriene C4 synthase (LTC4S, Homo sapiens, UniProt Q16873)): > 10 µM
COc1ccc2c(ccc3oc([N+](=O)[O-])c(OC)c32)c1  MIC90 (Enterobacter cloacae; REMA): > 32 µg/mL
COC(=O)C1=C(C)NC(C)=C(C(=O)OC(C)(C)CN(C)CCC(c2ccccc2)c2ccccc2)C1c1cccc([N+](=O)[O-])c1 (stereo not drawn)  metabolic activity (Aspergillus fumigatus; Alamar blue; 31.25 µg/mL, 48 h, together with: caspofungin 0.2 µg/mL): 19.6% and 22.9%
CS(=O)(=O)CCCn1c(Cn2c(=O)n(CC(F)(F)F)c3ccncc32)cc2cc(Cl)ccc21  LS mean difference vs placebo (respiratory syncytial virus; RT-qPCR; hospitalized infants 1-24 months, nasal swab; oral, 1-9 mg/kg daily, day 2, all doses combined; baseline: placebo): -1.33 log10 copies/mL
C#Cc1ccc(C=NNC(=O)c2ccc(COC)cc2)c(O)c1  FICI (Aspergillus fumigatus; 293; unit not given, together with: voriconazole; lower = more synergy): 2
CC[C@H](C)[C@@H]1NC(=O)[C@@H]2CCCN2C(=O)[C@H](CC(C)C)NC(=O)[C@H](CC(C)C)NC(=O)CNC(=O)[C@@H](NC(=O)[C@@H](NC(=O)[C@H](CC(=O)O)NC(=O)CNC(=O)[C@@H](NC(=O)[C@H](C)NC(=O)CNC(=O)[C@H](CCCCN)NC(=O)[C@H](CC(C)C)NC(=O)[C@H](CC(C)C)NC(=O)[C@H](CCCCN)NC(=O)CNC(=O)[C@@H](NC(=O)[C@@H](N)CC(C)C)C(C)C)C(C)C)C(C)C)CSSC[C@@H](C(=O)O)NC1=O  log2 fold change (RNA-seq, measured: Casp3; mouse, traumatic brain injury model, frontal cortex and hippocampus; dose not given; baseline: TBI alone): 0.775
O=C(O)C[C@H](NC(=O)[C@H](CC(=O)O)NC(=O)[C@H](CC(=O)O)NC(=O)[C@H](CC(=O)O)NC(=O)[C@H](CC(=O)O)NC(=O)[C@H](CC(=O)O)NC(=O)[C@H](CC(=O)O)NC(=O)[C@H](CC(=O)O)NC(=O)[C@H](CC(=O)O)NC(=O)[C@H](CC(=O)O)NC(=O)[C@H](CC(=O)O)NC(=O)[C@H](CCCCNC(=O)c1ccc(C(=O)NCCOCCOB2BBBBBB3BBBB3B2)cc1)NC(=O)CN1CCN(CC(=O)O)CCN(CC(=O)O)CCN(CC(=O)O)CC1)C(=O)O [gallium-67 labelled]  tissue uptake (gamma counting; ddY mouse, male, 6 weeks old, lung; intravenous, 37 kBq, 10 min): 2.83 %ID/g
OC(Cn1cncn1)(Cn1cncn1)c1ccc(F)cc1F  MIC (Candida parapsilosis; CGMCC 2.399; 48 h, 30 °C): 4 µM (≈ 1.23 µg/mL)
Nc1ncnc2c1ncn2[C@@H]1O[C@@H]2COP(=O)(O)O[C@H]3[C@@H](O)[C@H](n4cnc5c(=O)[nH]cnc54)O[C@@H]3COP(=O)(O)O[C@H]2[C@H]1O  fold enrichment (Zika virus; RNA sequencing, measured: degradation, collagen, R-HSA-1442490; HFF-1 cells; concentration not given, downregulated pathway; baseline: ZIKV-infected untreated cells): 8.91
CC(C)C[C@@H]1NC(=O)[C@H](CC(C)C)NC(=O)[C@H](Cc2c[nH]c3ccccc23)NC(=O)[C@H](CO)NC(=O)[C@H](Cc2c[nH]c3ccccc23)NC(=O)[C@@H]2CCCN2C(=O)[C@H](CC(C)C)NC(=O)[C@H](Cc2c[nH]cn2)NC(=O)[C@@H]2CCCN2C(=O)[C@H](CC(N)=O)NC(=O)[C@H](C)NC(=O)[C@H](Cc2ccc(O)cc2)NC(=O)[C@H](CS)NC(=O)[C@H](CCCCNC(=O)CN2CCN(CC(=O)O)CCN(CC(=O)O)CCN(CC(=O)O)CC2)NC1=O [lutetium-177 labelled]  total nuclear transformations (OLINDA dosimetry; BALB/c mice, liver; 37 MBq, 7 days): 9050 MBq-s
C[C@@H](O)[C@H](NC(=O)[C@@H]1CSSC[C@H](NC(=O)[C@@H](Cc2ccccc2)NC(=O)CN2CCN(CC(=O)[O-])CCN(CC(=O)[O-])CCN(CC(=O)[O-])CC2)C(=O)N[C@@H](Cc2ccc(O)cc2)C(=O)N[C@H](Cc2c[nH]c3ccccc23)C(=O)N[C@@H](CCCCN)C(=O)N[C@@H]([C@@H](C)O)C(=O)N1)C(=O)O.[177Lu+3]  uptake (MEC1 treated with 100 µM zebularine; gamma counter; serum-free RPMI; 120 min, 37 °C): 1.59%
CC(C)C[C@H](NC(=O)[C@H](CCCNC(=N)N)NC(=O)[C@H](Cc1c[nH]c2ccccc12)NC(=O)[C@H](CCCNC(=N)N)NC(=O)[C@H](Cc1c[nH]c2ccccc12)NC(=O)[C@H](Cc1c[nH]c2ccccc12)NC(=O)[C@H](Cc1c[nH]c2ccccc12)NC(=O)[C@H](CCCNC(=N)N)NC(=O)[C@H](Cc1c[nH]c2ccccc12)NC(=O)[C@H](CCCNC(=N)N)NC(=O)CN)C(N)=O  MIC (Candida albicans; broth microdilution; CGMCC 2.209, RPMI 1640-MOPS; 48 h, 30 °C, together with: NH4Cl 6 µM): 64 µM (≈ 112 µg/mL)
CN(C)C(=O)Cn1cc(-c2ccc(-c3nnc4ccccn34)cc2)cn1  inhibition (murine hepatitis virus; viral replication, nanoluciferase reporter; DBT; 1 µM; baseline: DMSO vehicle): 44%
Oc1ccc2c3c1O[C@H]1[C@@H](O)CC[C@@]4(O)[C@@H](C2)N(CC2CCC2)CC[C@]314  log2 fold change (G-protein coupled receptor 84 (GPR84, Homo sapiens, UniProt Q9NQS5); β-arrestin recruitment, TANGO luminescence; concentration not given; baseline: basal luminescence): 0.436
Nc1ccn([C@@H]2O[C@H](CO)[C@@H](O)C2(F)F)c(=O)n1  selectivity index (human alphaherpesvirus 1; primary human fibroblasts, K26 GFP; baseline: CC50 over IC50): > 1200
Cc1ccc(-c2ccc3c(ccc4sc5c(c43)NC[C@@H](C)NC5=O)n2)cn1  inhibition (murine hepatitis virus; viral replication, nanoluciferase reporter; DBT; 1 µM, 10 h; baseline: DMSO vehicle): 34%
O=C(Nc1ccc2[nH]nc(-c3ccncc3)c2c1)[C@@H]1CCN(CC(=O)N2CCN(c3ccc(-c4ncccn4)cc3)CC2)C1  metabolic activity (Aspergillus fumigatus; 20 µM; baseline: untreated): ≥ 80%
COc1c(CCC[P+](c2ccccc2)(c2ccccc2)c2ccccc2)cc2c(c1OC)OCO2.[I-]  LC50 (OVCAR-3; SRB): > -4 log M
CC[C@H](C)[C@H](NC(=O)[C@H](C)NC(=O)[C@H](CCCCN)NC(=O)[C@H](CC(C)C)NC(=O)[C@H](C)NC(=O)[C@@H](NC(=O)[C@H](Cc1c[nH]cn1)NC(=O)[C@H](CC(C)C)NC(=O)[C@@H](NC(=O)[C@@H](NC(=O)[C@H](CCCCN)NC(=O)[C@H](C)NC(=O)[C@H](C)NC(=O)[C@H](CO)NC(=O)[C@H](CCCCN)NC(=O)[C@H](Cc1ccccc1)NC(=O)[C@@H](NC(=O)[C@H](CCCCN)NC(=O)[C@H](CC(C)C)NC(=O)[C@H](Cc1ccccc1)NC(=O)[C@H](CO)NC(=O)[C@H](CCCCN)NC(=O)[C@H](Cc1c[nH]c2ccccc12)NC(=O)[C@H](CCCCN)NC(C)=O)[C@@H](C)O)[C@@H](C)O)C(C)C)[C@@H](C)O)C(=O)N[C@@H](CO)C(=O)N[C@@H](CO)C(N)=O  MIC geometric mean (Staphylococcus aureus; MSSA; 67 strains): 4.87 µg/mL (≈ 1.66 µM)
COc1ccc(N2C(=O)N(c3c(C)cccc3Cl)Cc3cnc(Nc4ccc(C5CCN(C)CC5)cc4OC)nc32)nc1  inhibition (Calcium/calmodulin-dependent protein kinase type II subunit delta (CAMK2D, Homo sapiens, UniProt Q13557); kinase activity; 0.5 µM): 4%
CCCCCCCC/C=C\CCCCCCCCNC(=O)CP(=O)(O)O  MIC90 (Bacillus cereus; 1056): 0.8 µg/mL (≈ 2.05 µM)
COc1cc(CCC[P+](c2ccccc2)(c2ccccc2)c2ccccc2)c(OC)c2c1OCO2.[I-]  LC50 (HOP-92; SRB): > -4 log M
CN1CCN(Cc2cc(NC(=O)c3ccc4c(c3)CN(c3ccccc3)CC4)cc(C(F)(F)F)c2)CC1  inhibition (murine hepatitis virus; viral replication, nanoluciferase reporter; DBT; 1 µM; baseline: DMSO vehicle): 5%
N=C(N)NCCC[C@H](NC(=O)[C@H](Cc1c[nH]c2ccccc12)NC(=O)[C@H](CCCNC(=N)N)NC(=O)[C@H](Cc1c[nH]c2ccccc12)NC(=O)[C@H](Cc1c[nH]c2ccccc12)NC(=O)[C@H](Cc1c[nH]c2ccccc12)NC(=O)[C@H](CCCNC(=N)N)NC(=O)[C@H](Cc1c[nH]c2ccccc12)NC(=O)[C@H](CCCNC(=N)N)NC(=O)CN)C(N)=O  MIC (Candida albicans; broth microdilution; 56452, RPMI 1640-MOPS; 48 h, 30 °C): 4 µM (≈ 6.52 µg/mL)

Repeated from above:
Cc1cnc(-c2cc(Cl)ccc2F)cc1-n1c(=O)n(CC(N)=O)c2cnccc21  inhibition (murine hepatitis virus; viral replication, nanoluciferase reporter; DBT; 1 µM, 10 h; baseline: DMSO vehicle): 28%
COc1cc(CCC[P+](c2ccccc2)(c2ccccc2)c2ccccc2)c(OC)c2c1OCO2.[I-]  LC50 (HOP-92; SRB): > -4 log M
